{"data": "Experimental data pooled from the literature", "note": "Lines come from different studies, so protocols differ."}
{"Molecule": "WNSNNLDSKVGGNYN", "target or system": "human CD4 T cells", "assay": "AIM", "system": "peptide", "measurement": "responding donors", "value": "9%"}
{"Molecule": "Nc1ncnc2c([C@@H]3N[C@H](CO)[C@@H](O)[C@H]3O)c[nH]c12", "target or system": "Marburg virus", "assay": "viral replication, antibody staining", "system": "HeLa, Musoke", "conditions": "6.3 µM, 12 h", "measurement": "infected cells", "value": "4.4%"}
{"Molecule": "COc1cc(/C=C2/SC(=S)NC2=O)ccc1OCC(=O)O", "target or system": "Replicase polyprotein 1ab, main protease (rep, Severe acute respiratory syndrome coronavirus 2, UniProt P0DTD1)", "assay": "viral replication, Gluc reporter", "system": "SARS-CoV-2", "conditions": "20 µM", "measurement": "inhibition", "value": "-1.26%"}
{"Molecule": "CC[C@H](C)[C@H](NC(=O)[C@H](CC(C)C)NC(=O)[C@H](Cc1c[nH]c2ccccc12)NC(=O)[C@H](CCC(N)=O)NC(=O)[C@@H](NC(=O)[C@H](Cc1ccccc1)NC(=O)[C@H](C)NC(=O)[C@H](CCCCNC(=O)COCCOCCNC(=O)COCCOCCNC(=O)CC[C@H](NC(=O)CCCCCCCCCCCCCCCCCCC(=O)O)C(=O)O)NC(=O)[C@H](CCC(N)=O)NC(=O)[C@H](C)NC(=O)[C@@H](NC(=O)[C@H](CCCCN)NC(=O)[C@H](CC(=O)O)NC(=O)[C@H](CC(C)C)NC(=O)C(C)(C)NC(=O)[C@@H](NC(=O)[C@H](CO)NC(=O)[C@H](Cc1ccc(O)cc1)NC(=O)[C@H](CC(=O)O)NC(=O)[C@H](CO)NC(=O)[C@@H](NC(=O)[C@H](Cc1ccccc1)NC(=O)[C@@H](NC(=O)CNC(=O)[C@H](CCC(=O)O)NC(=O)C(C)(C)NC(=O)[C@@H](N)Cc1ccc(O)cc1)[C@@H](C)O)[C@@H](C)O)[C@@H](C)CC)[C@@H](C)CC)C(C)C)C(=O)N[C@@H](C)C(=O)NCC(=O)NCC(=O)N1CCC[C@H]1C(=O)N[C@@H](CO)C(=O)N[C@@H](CO)C(=O)NCC(=O)N[C@@H](C)C(=O)N1CCC[C@H]1C(=O)N1CCC[C@H]1C(=O)N1CCC[C@H]1C(=O)N[C@@H](CO)C(N)=O", "system": "healthy human", "conditions": "2.5 mg, single ascending dose", "measurement": "injection site reaction", "value": "0%"}
{"Molecule": "FNCYFPLQSYGFQPT", "target or system": "human CD4 T cells", "assay": "AIM", "system": "peptide", "measurement": "responding donors", "value": "8%"}
